Measured values pooled from the literature.
Compare with care: the assays were run in different laboratories. Values joined by “and” are separate records of one study, mostly repeats; a detail may differ. Numbers after ± are the reported error. Converted amounts (≈) assume the structure as drawn.
Organism: Klebsiella pneumoniae

c1ccc(CN2CCOCCOCCN(CCCCCCCCCCCCCCN3CCOCCOCCN(CCCCCCCCCCCCCCN4CCOCCOCCN(Cc5ccccc5)CCOCCOCC4)CCOCCOCC3)CCOCCOCC2)cc1 — fold enhancement (ampicillin antibacterial activity, potentiator, checkerboard; ATCC BAA-2146 beta-lactamase producing; 5 µM (half MIC), with: ampicillin; relative to: ampicillin alone): 0 fold
CC[C@H](C)CCCCC(=O)N[C@@H](CCN)C(=O)N[C@H](C(=O)N[C@@H](CCN)C(=O)N[C@H]1CCNC(=O)[C@H]([C@@H](C)O)NC(=O)[C@H](CCN)NC(=O)[C@H](CCN)NC(=O)[C@H](CC(C)C)NC(=O)[C@@H](CC(C)C)NC(=O)[C@H](CCN)NC1=O)[C@@H](C)O — bacterial load (BAA-2784, BALB/c mouse peritonitis, kidney; dose not given): 8.64 log CFU and 7.68 log CFU and 8.3 log CFU and 8.45 log CFU and 8.12 log CFU
c1ccc(CN2CCOCCOCCN(CCCCCCCCN3CCOCCOCCN(CCCCCCCCN4CCOCCOCCN(Cc5ccccc5)CCOCCOCC4)CCOCCOCC3)CCOCCOCC2)cc1 — tetracycline MIC (ATCC BAA-2146; quarter MIC, with: tetracycline): 250 ± 50 µM
CC1(C)[C@H](NC(=O)/C(=N\OCc2cc(=O)c(O)cn2O)c2csc(N)n2)C(=O)N1OS(=O)(=O)O — MIC (agar dilution; 16-14 ESBL): 0.5 µg/mL (≈ 0.964 µM)
c1ccc(CN2CCOCCOCCN(CCCCCCCCCCN3CCOCCOCCN(CCCCCCCCCCN4CCOCCOCCN(Cc5ccccc5)CCOCCOCC4)CCOCCOCC3)CCOCCOCC2)cc1 — fold enhancement (tetracycline MIC, checkerboard; ATCC BAA-2146; quarter MIC, with: tetracycline; relative to: MIC alone over combination): 3 fold
CC(C)C[C@H](NC(=O)[C@H](Cc1ccc(O)cc1)NC(=O)[C@@H]1CCCN1C(=O)[C@H](CCCNC(=N)N)NC(=O)[C@@H]1CCCN1C(=O)[C@H](CCCCN)NC(=O)[C@H](CC(=O)O)NC(=O)[C@@H]1CCCN1C(=O)[C@H](CCCNC(=N)N)NC(=O)C1(N)CCCCC1)C(=O)N1CCC[C@H]1C(=O)N[C@@H](CCCNC(=N)N)C(=O)N1CCC[C@H]1C(=O)N[C@@H](CCCNC(=N)N)C(=O)N1CCC[C@H]1C(=O)N1CCC[C@H]1C(=O)N[C@@H](CCCNC(=N)N)C(=O)N1CCC[C@H]1C(=O)N[C@H](C(=O)N[C@@H](CCCNC(=N)N)C(=O)N[C@@H](CSCc1ccccc1CSC[C@H](NC(=O)[C@H](CCCNC(=N)N)NC(=O)[C@@H](NC(=O)[C@@H]1CCCN1C(=O)[C@H](CCCNC(=N)N)NC(=O)[C@@H]1CCCN1C(=O)[C@@H]1CCCN1C(=O)[C@H](CCCNC(=N)N)NC(=O)[C@@H]1CCCN1C(=O)[C@H](CCCNC(=N)N)NC(=O)[C@@H]1CCCN1C(=O)[C@H](CC(C)C)NC(=O)[C@H](Cc1ccc(O)cc1)NC(=O)[C@@H]1CCCN1C(=O)[C@H](CCCNC(=N)N)NC(=O)[C@@H]1CCCN1C(=O)[C@H](CCCCN)NC(=O)[C@H](CC(=O)O)NC(=O)[C@@H]1CCCN1C(=O)[C@H](CCCNC(=N)N)NC(=O)C1(N)CCCCC1)C(C)C)C(=O)NN)C(=O)NN)C(C)C — MDC (membrane disruption, propidium iodide uptake; 13883; 90 min, 37 °C): 18.1 ± 2 µg/mL
CC1(C)[C@H](NC(=O)/C(=N\OC2(C(=O)O)CCCCC2)c2csc(N)n2)C(=O)N1OS(=O)(=O)O — MIC (agar dilution; 16-14, ESBL-producing): 2 µg/mL (≈ 3.96 µM)
CC(C)C[C@H](NC(=O)[C@H](Cc1ccc(O)cc1)NC(=O)[C@@H]1CCCN1C(=O)[C@H](CCCNC(=N)N)NC(=O)[C@@H]1CCCN1C(=O)[C@H](CCCCN)NC(=O)[C@H](CC(=O)O)NC(=O)[C@@H]1CCCN1C(=O)[C@H](CCCNC(=N)N)NC(=O)C1(N)CCCCC1)C(=O)N1CCC[C@H]1C(=O)N[C@@H](CCCNC(=N)N)C(=O)N1CCC[C@H]1C(=O)N[C@@H](CCCNC(=N)N)C(=O)N1CCC[C@H]1C(=O)N1CCC[C@H]1C(=O)N[C@@H](CCCNC(=N)N)C(=O)N1CCC[C@H]1C(=O)N[C@H](C(=O)N[C@@H](CCCNC(=N)N)C(=O)N[C@@H](CSCc1ccc(CSC[C@H](NC(=O)[C@H](CCCNC(=N)N)NC(=O)[C@@H](NC(=O)[C@@H]2CCCN2C(=O)[C@H](CCCNC(=N)N)NC(=O)[C@@H]2CCCN2C(=O)[C@@H]2CCCN2C(=O)[C@H](CCCNC(=N)N)NC(=O)[C@@H]2CCCN2C(=O)[C@H](CCCNC(=N)N)NC(=O)[C@@H]2CCCN2C(=O)[C@H](CC(C)C)NC(=O)[C@H](Cc2ccc(O)cc2)NC(=O)[C@@H]2CCCN2C(=O)[C@H](CCCNC(=N)N)NC(=O)[C@@H]2CCCN2C(=O)[C@H](CCCCN)NC(=O)[C@H](CC(=O)O)NC(=O)[C@@H]2CCCN2C(=O)[C@H](CCCNC(=N)N)NC(=O)C2(N)CCCCC2)C(C)C)C(=O)NN)cc1)C(=O)NN)C(C)C — MDC (membrane disruption, propidium iodide uptake; 13883; 90 min, 37 °C): 17.5 ± 0.1 µg/mL
CN(C)S(=O)(=O)c1ccc(S(=O)(=O)N2CCC(n3c(=O)[nH]c4ccccc43)CC2)cc1 — lung bacterial burden (ATCC 700603, mouse lung infection model, lung; 1.5 mg/kg, 24 h): 7.01 log CFU and 5.17 log CFU and 6.09 log CFU and 6.43 log CFU

Some of these lines once more:
c1ccc(CN2CCOCCOCCN(CCCCCCCCCCCCCCN3CCOCCOCCN(CCCCCCCCCCCCCCN4CCOCCOCCN(Cc5ccccc5)CCOCCOCC4)CCOCCOCC3)CCOCCOCC2)cc1 — fold enhancement (ampicillin antibacterial activity, potentiator, checkerboard; ATCC BAA-2146 beta-lactamase producing; 5 µM (half MIC), with: ampicillin; relative to: ampicillin alone): 0 fold
